Results gathered from unrelated publications.
A part holds a random share of what one study measured.
Sequence of UniProt P42336 (whole entry, unmodified, looked up): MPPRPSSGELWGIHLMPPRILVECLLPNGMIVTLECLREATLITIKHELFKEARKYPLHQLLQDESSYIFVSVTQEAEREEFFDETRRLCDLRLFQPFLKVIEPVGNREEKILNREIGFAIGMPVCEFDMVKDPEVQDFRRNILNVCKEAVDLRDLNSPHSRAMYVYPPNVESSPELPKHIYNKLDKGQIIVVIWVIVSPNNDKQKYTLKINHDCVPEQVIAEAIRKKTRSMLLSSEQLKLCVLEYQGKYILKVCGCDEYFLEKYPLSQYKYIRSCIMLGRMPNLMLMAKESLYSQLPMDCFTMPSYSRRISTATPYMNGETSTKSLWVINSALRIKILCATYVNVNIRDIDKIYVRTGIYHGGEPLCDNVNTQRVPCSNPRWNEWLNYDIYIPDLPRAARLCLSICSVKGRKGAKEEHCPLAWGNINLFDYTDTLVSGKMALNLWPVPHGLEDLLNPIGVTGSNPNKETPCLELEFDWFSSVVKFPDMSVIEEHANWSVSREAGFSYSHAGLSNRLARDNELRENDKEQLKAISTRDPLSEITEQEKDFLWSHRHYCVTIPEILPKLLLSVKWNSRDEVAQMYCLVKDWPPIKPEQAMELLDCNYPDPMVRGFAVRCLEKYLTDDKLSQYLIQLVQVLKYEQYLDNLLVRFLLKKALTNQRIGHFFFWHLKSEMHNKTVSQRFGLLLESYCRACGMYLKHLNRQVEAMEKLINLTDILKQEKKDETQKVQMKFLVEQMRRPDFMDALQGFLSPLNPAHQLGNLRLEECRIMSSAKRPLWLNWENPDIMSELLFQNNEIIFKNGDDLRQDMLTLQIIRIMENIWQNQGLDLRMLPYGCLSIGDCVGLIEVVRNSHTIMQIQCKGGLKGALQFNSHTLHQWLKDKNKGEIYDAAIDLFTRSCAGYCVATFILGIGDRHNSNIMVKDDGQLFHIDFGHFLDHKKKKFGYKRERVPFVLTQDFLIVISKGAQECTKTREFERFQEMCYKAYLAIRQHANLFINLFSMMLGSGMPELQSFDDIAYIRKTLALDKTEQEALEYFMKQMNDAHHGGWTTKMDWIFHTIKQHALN
Sequence of UniProt P00519 (whole entry, unmodified, looked up): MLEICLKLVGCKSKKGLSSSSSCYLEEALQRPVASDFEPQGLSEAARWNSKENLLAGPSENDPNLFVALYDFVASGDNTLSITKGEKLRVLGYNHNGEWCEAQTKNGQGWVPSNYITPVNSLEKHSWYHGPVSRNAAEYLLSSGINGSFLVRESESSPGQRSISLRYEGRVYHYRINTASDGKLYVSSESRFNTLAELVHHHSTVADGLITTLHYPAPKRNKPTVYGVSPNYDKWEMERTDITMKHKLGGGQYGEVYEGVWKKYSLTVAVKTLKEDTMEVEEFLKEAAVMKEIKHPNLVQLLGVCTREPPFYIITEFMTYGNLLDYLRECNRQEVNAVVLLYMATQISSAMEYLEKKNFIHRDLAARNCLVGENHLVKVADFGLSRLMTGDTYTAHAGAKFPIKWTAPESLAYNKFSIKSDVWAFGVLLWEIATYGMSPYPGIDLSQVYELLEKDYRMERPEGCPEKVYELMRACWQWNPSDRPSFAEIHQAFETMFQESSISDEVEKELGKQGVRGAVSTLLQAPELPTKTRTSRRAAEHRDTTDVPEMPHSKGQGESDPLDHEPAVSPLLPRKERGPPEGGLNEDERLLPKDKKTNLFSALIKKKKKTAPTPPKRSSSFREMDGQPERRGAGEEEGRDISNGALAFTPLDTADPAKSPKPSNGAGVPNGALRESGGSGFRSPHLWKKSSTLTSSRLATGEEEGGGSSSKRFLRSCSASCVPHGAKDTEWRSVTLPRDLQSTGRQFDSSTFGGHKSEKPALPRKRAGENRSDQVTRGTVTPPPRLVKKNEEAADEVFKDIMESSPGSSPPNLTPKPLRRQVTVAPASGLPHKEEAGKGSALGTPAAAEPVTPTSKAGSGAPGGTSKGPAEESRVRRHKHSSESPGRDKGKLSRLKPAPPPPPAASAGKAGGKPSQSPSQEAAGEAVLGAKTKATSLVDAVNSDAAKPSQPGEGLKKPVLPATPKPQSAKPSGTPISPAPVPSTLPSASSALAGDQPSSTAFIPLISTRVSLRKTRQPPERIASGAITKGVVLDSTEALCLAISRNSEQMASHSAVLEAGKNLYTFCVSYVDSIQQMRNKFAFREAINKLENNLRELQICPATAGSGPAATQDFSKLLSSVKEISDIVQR
Sequence of UniProt Q5S007 (whole entry, looked up): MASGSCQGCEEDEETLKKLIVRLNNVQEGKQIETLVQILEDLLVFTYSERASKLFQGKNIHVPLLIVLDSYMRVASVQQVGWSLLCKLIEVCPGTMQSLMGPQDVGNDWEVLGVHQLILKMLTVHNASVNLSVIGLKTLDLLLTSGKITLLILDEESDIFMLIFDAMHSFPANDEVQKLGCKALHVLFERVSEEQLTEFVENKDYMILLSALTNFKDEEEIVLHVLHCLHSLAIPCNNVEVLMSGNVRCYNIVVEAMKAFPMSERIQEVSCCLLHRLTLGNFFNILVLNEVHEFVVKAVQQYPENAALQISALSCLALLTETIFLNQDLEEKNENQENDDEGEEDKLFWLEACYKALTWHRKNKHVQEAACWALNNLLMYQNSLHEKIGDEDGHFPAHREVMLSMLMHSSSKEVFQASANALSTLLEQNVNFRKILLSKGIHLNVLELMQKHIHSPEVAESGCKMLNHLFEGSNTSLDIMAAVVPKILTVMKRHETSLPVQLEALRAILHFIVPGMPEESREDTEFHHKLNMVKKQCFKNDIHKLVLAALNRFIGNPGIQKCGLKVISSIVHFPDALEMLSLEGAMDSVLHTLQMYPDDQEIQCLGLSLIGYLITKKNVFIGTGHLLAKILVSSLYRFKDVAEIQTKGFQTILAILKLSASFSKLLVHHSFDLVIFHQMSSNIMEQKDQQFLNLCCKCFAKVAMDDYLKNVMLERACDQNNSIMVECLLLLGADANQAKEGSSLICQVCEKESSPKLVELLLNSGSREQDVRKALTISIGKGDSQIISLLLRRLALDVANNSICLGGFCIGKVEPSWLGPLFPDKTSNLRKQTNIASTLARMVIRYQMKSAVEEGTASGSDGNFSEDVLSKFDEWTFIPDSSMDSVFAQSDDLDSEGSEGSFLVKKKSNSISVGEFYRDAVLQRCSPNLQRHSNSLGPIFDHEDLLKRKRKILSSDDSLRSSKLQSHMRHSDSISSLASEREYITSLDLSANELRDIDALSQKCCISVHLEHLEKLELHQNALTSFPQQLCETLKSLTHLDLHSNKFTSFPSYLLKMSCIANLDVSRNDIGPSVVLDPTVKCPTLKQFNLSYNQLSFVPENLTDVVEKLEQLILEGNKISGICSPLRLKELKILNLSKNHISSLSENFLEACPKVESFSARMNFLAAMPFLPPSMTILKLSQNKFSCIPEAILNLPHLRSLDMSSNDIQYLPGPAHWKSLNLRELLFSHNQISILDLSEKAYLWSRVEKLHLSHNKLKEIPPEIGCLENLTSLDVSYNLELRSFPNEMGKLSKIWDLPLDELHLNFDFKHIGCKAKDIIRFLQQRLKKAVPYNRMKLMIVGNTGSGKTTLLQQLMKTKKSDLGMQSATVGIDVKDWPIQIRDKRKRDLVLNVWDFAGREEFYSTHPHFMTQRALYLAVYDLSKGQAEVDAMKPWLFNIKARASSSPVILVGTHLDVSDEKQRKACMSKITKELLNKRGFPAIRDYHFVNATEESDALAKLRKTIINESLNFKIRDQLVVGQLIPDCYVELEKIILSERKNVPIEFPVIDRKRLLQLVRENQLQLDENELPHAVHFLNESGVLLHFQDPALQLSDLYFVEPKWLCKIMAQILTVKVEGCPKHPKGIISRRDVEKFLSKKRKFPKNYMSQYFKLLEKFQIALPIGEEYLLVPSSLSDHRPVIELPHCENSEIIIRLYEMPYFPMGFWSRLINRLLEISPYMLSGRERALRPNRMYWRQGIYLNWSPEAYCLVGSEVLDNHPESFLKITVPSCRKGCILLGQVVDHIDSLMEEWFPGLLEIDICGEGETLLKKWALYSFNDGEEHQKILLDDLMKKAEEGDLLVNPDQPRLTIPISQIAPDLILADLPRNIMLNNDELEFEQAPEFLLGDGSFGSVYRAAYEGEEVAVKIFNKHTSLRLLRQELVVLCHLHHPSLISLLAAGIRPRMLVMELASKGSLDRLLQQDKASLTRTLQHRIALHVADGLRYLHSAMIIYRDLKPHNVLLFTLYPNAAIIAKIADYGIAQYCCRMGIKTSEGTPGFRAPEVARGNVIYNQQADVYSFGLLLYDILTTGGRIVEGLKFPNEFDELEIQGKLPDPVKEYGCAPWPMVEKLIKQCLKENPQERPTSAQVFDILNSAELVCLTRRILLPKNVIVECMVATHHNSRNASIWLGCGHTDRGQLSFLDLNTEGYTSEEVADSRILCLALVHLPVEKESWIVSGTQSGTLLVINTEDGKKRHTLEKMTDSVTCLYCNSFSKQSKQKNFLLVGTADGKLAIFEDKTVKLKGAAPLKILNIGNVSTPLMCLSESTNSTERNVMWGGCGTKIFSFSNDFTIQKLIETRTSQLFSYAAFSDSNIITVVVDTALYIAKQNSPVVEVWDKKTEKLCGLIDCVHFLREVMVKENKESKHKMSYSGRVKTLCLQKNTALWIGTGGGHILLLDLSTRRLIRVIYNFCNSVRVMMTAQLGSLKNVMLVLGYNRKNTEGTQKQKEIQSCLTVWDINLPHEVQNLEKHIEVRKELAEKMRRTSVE
Sequence of UniProt P53778 (whole entry, looked up): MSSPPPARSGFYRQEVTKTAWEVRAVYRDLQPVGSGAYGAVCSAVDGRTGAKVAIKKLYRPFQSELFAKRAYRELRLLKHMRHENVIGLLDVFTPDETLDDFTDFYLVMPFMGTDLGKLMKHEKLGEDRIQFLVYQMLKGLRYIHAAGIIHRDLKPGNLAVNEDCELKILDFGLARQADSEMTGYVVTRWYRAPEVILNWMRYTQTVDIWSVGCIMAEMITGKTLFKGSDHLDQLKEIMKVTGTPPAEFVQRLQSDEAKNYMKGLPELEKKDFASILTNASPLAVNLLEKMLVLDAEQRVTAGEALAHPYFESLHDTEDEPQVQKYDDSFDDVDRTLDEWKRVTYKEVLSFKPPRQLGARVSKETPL

Set 1
Compound: C=CC(=O)N1CCC([C@@H]2CCNc3c(C(N)=O)c(-c4ccc(Oc5ccccc5)cc4)nn32)CC1
Tested at: 1 µM
| target | effect on | action | inhibition [%] |
| --- | --- | --- | --- |
| Tyrosine-protein kinase ABL1, phosphorylated (ABL1, Homo sapiens, UniProt P00519, E255K) | enzyme activity | inhibitor | 15 |
| EPHA8 (Homo sapiens, UniProt P29322) | cell-free assay |  | 10 |
| KIT (Homo sapiens, UniProt P10721, V559D/V654A) | enzyme activity | inhibitor | 12 |
| Aurora kinase C (AURKC, Homo sapiens, UniProt Q9UQB9) | enzyme activity | inhibitor | 28 |
| CLK4 (Homo sapiens, UniProt Q9HAZ1) | enzyme activity | inhibitor | 12 |
| PTK2 (Homo sapiens, UniProt Q05397) | enzyme activity | inhibitor | 11 |
| FLT3 (Homo sapiens, UniProt P36888, F691L/ITD) | enzyme activity | inhibitor | 3 |
| MAP3K19 (Homo sapiens, UniProt Q56UN5) | enzyme activity | inhibitor | 15 |
| MELK (Homo sapiens, UniProt Q14680) | enzyme activity | inhibitor | 19 |
| ERBB2 (Homo sapiens, UniProt P04626) | enzyme activity | inhibitor | 95 |
| EPHA4 (Homo sapiens, UniProt P54764) | cell-free assay |  | 0 |

Set 2
Compound: COc1cc(-c2cn(C3CCc4c(F)cccc4N(CC(F)(F)F)C3=O)nn2)ccc1-n1cnc(C)c1 (stereo not shown)
Tested at: 1 µM
| target | effect on | method | remaining binding |
| --- | --- | --- | --- |
| CDK7 (Homo sapiens, UniProt P50613) | cell-free assay | competition with immobilised ligand | 100% |
| MAPK6 (Homo sapiens, UniProt Q16659) | cell-free assay | competition with immobilised ligand | 100% |
| MAP4K3 (Homo sapiens, UniProt Q8IVH8) | cell-free assay | competition with immobilised ligand | 100% |
| SGK1 (Homo sapiens, UniProt O00141) | cell-free assay | competition with immobilised ligand | 90% |
| PIK3CA (Homo sapiens, UniProt P42336, E545A) | cell-free assay | competition with immobilised ligand | 100% |
| PIK3CA (Homo sapiens, UniProt P42336, H1047L) | cell-free assay | competition with immobilised ligand | 96% |
| EPHA2 (Homo sapiens, UniProt P29317) | cell-free assay | competition with immobilised ligand | 100% |
| MAPK4 (Homo sapiens, UniProt P31152) | cell-free assay | competition with immobilised ligand | 89% |
| RIPK2 (Homo sapiens, UniProt O43353) | cell-free assay | competition with immobilised ligand | 100% |
| PIP5K1A (Homo sapiens, UniProt Q99755) | cell-free assay | competition with immobilised ligand | 100% |
| TEK (Homo sapiens, UniProt Q02763) | cell-free assay | competition with immobilised ligand | 100% |
| MATK (Homo sapiens, UniProt P42679) | cell-free assay | competition with immobilised ligand | 100% |
| CHEK1 (Homo sapiens, UniProt O14757) | cell-free assay | competition with immobilised ligand | 100% |
| CDK5 (Homo sapiens, UniProt Q00535) | cell-free assay | competition with immobilised ligand | 100% |
| EGFR (Homo sapiens, UniProt P00533, G719C) | cell-free assay | competition with immobilised ligand | 94% |
| Tyrosine-protein kinase ABL1, phosphorylated (ABL1, Homo sapiens, UniProt P00519, F317I) | binding |  | 100% |
| PLK3 (Homo sapiens, UniProt Q9H4B4) | cell-free assay | competition with immobilised ligand | 100% |
| PIM1 (Homo sapiens, UniProt P11309) | cell-free assay | competition with immobilised ligand | 96% |

Set 3
Cell line: A-375
Tested at: 100 µM
Time: 18 h
| SMILES | viability [%] |
| --- | --- |
| CCOC(=O)C1=C(COCCN)NC(C)=C(C(=O)OC)[C@@H]1c1ccccc1Cl | 8.39 |
| C[C@@H](O[C@H]1OCCN(Cc2n[nH]c(=O)[nH]2)[C@H]1c1ccc(F)cc1)c1cc(C(F)(F)F)cc(C(F)(F)F)c1 | 7.95 |
| O=C(COc1ccc(Cl)cc1)N1CCN(Cc2ccc3c(c2)OCO3)CC1 | 78.4 |
| Nc1ccn([C@@H]2O[C@H](CO)[C@@H](O)C2(F)F)c(=O)n1 | 69 |
| CCCc1cc(C(N)=S)ccn1 | 111 |
| CC(=O)CCCCn1c(=O)c2c(ncn2C)n(C)c1=O | 100 |
| CC(=O)Oc1cc(C(F)(F)F)ccc1C(=O)O | 79.2 |

Set 4
Compound: C[S+]([O-])c1ccc(-c2nc(-c3ccncc3)c(-c3ccc(F)cc3)[nH]2)cc1 (stereo not shown)
Effect on: enzyme activity
Action: inhibitor
Tested at: 0.5 µM
Reference: control
| target | remaining activity [%] |
| --- | --- |
| MAPK13 (Homo sapiens, UniProt O15264) | 106 |
| MKNK2 (Homo sapiens, UniProt Q9HBH9) | 94.4 |
| PRKCD (Homo sapiens, UniProt Q05655) | 107 |
| MAP4K2 (Homo sapiens, UniProt Q12851) | 106 |
| IRAK4 (Homo sapiens, UniProt Q9NWZ3) | 130 |
| PRKG1 (Homo sapiens, UniProt Q13976) | 94.3 |
| NEK4 (Homo sapiens, UniProt P51957) | 98.2 |
| LYN (Homo sapiens, UniProt P07948) | 91.8 |
| Cyclin-dependent kinase 9, with cyclin T1 (CDK9, Homo sapiens, UniProt P50750) | 83.8 |
| LRRK2 (Homo sapiens, UniProt Q5S007) | 100 |
| BTK (Homo sapiens, UniProt Q06187) | 97.2 |
| AKT3 (Homo sapiens, UniProt Q9Y243) | 102 |
| MAPK12 (Homo sapiens, UniProt P53778) | 105 |
| PRKCI (Homo sapiens, UniProt P41743) | 95.2 |
| WNK2 (Homo sapiens, UniProt Q9Y3S1) | 103 |
| EPHA5 (Homo sapiens, UniProt P54756) | 89.5 |

A few entries again (set 4):
| target | remaining activity [%] |
| --- | --- |
| NEK4 (Homo sapiens, UniProt P51957) | 98.2 |
| LYN (Homo sapiens, UniProt P07948) | 91.8 |
| Cyclin-dependent kinase 9, with cyclin T1 (CDK9, Homo sapiens, UniProt P50750) | 83.8 |
| LRRK2 (Homo sapiens, UniProt Q5S007) | 100 |
| BTK (Homo sapiens, UniProt Q06187) | 97.2 |
| AKT3 (Homo sapiens, UniProt Q9Y243) | 102 |
| MAPK12 (Homo sapiens, UniProt P53778) | 105 |
| PRKCI (Homo sapiens, UniProt P41743) | 95.2 |
